# Values quoted from earlier work, collected from citations in different studies.
# Lines come from different studies, so protocols differ. ± gives the spread as reported.
# Sequence of UniProt Q9BQI3 (whole entry, looked up): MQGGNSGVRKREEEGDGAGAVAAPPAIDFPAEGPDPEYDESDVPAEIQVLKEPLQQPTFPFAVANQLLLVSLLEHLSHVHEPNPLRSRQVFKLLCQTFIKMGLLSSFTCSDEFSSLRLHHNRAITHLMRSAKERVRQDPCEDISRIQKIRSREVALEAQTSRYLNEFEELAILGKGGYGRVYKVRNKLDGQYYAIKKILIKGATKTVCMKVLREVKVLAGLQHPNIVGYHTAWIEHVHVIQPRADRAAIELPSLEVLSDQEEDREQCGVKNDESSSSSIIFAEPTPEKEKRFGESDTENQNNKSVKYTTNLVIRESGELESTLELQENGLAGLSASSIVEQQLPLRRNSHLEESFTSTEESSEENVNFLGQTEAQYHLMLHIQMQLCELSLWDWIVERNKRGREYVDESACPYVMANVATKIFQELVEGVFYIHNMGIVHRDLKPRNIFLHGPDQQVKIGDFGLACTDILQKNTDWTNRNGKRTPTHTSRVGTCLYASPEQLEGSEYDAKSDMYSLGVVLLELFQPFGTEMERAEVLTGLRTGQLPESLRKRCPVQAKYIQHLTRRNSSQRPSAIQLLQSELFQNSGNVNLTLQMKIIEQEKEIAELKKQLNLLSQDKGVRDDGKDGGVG
Structure (SMILES),target or system,test,test system,setting,scale,quantity,value
Cc1ccc(C(=O)N(CCCN)C(c2nc3snc(C)c3c(=O)n2Cc2ccccc2)C(C)C)cc1 (stereo not shown),,,solid tumour patients,"intravenous, 1 h infusion, 28-day schedule, three-weekly",,dose with dose-limiting neutropenia,> 30 mg
CCCCCCCCCCCCCCCC(=O)N[C@@H](CCC(=O)NCCCC[C@H](NC(=O)[C@H](C)NC(=O)[C@H](C)NC(=O)[C@H](CCC(N)=O)NC(=O)CNC(=O)[C@H](CCC(=O)O)NC(=O)[C@H](CC(C)C)NC(=O)[C@H](Cc1ccc(O)cc1)NC(=O)[C@H](CO)NC(=O)[C@H](CO)NC(=O)[C@@H](NC(=O)[C@H](CC(=O)O)NC(=O)[C@H](CO)NC(=O)[C@@H](NC(=O)[C@H](Cc1ccccc1)NC(=O)[C@@H](NC(=O)CNC(=O)[C@H](CCC(=O)O)NC(=O)[C@H](C)NC(=O)[C@@H](N)Cc1cnc[nH]1)[C@@H](C)O)[C@@H](C)O)C(C)C)C(=O)N[C@@H](CCC(=O)O)C(=O)N[C@@H](Cc1ccccc1)C(=O)N[C@H](C(=O)N[C@@H](C)C(=O)N[C@@H](Cc1c[nH]c2ccccc12)C(=O)N[C@@H](CC(C)C)C(=O)N[C@H](C(=O)N[C@@H](CCCNC(=N)N)C(=O)NCC(=O)N[C@@H](CCCNC(=N)N)C(=O)NCC(=O)O)C(C)C)[C@@H](C)CC)C(=O)O,,,overweight or obese adults,3.0 mg,,benign colorectal neoplasm incidence,0.5%
Nc1cc(C(F)(F)F)c(-c2nc(N3CCOCC3)nc(N3CCOCC3)n2)cn1,"Eukaryotic translation initiation factor 2-alpha kinase 1 (EIF2AK1, Homo sapiens, UniProt Q9BQI3)",enzyme activity,,10 µM,reference: untreated,remaining activity,100%
CC(C)(C)CC(C)(C)c1ccc(O)cc1,,,human liver,1 µM,,glucuronidation rate,7880 pmol/min/mg protein
O=C(O)CN(CCN(CC(=O)O)CC(=O)O)CCN(CC(=O)O)CC(=O)O,,"pH-potentiometry, measured: logK4H",0.1 M NaClO4,25 °C,,protonation constant (log),2.9
CCCC(C)C(=O)O (stereo not shown),,small eyes,zebrafish embryo,nominal concentration,,EC10,> 900 µM
Nc1ncnc2c1ncn2[C@@H]1O[C@H](CO)C[C@@H]1F,,,dog,50 mg/kg,,oral bioavailability,83%
CC(C)n1c(Nc2cccnc2)nc2cnc(Nc3ccc(N4CCN(C)CC4)cc3)nc21,,,human,50 to 150 mg,,tolerability,not toxic
CCCN(CCC)CCc1cccc2c1CC(=O)N2,,,dog,intravenous,,elimination half-life,~4 h
OC(Cn1cncn1)(Cn1cncn1)c1ccc(F)cc1F,,"perpetrator, measured: (S)-warfarin",human,dose not given,reference: without compound,AUC increase,184%
O=C(CCCCCCC(=O)Nc1ccccc1)NO,,,BALB/c nude mouse,"oral, 50 mg/kg single dose",,Cmax,2000 nM
O=C(O)CN1CCNCCN(CC(=O)O)CCN(CC(=O)O)CC1,,,,0.15 M NaCl,,sum of log KiH,30.3
CCOc1c([C@H](C)n2nc(C)c3c(N)ncnc32)cc(Cl)c(F)c1[C@@H]1CNC(=O)C1,,,human,"oral, 20 and 30 mg once daily, high-fat meal",reference: fasted,Cmax decrease,42%
CC1(C)S[C@@H]2[C@H](NC(=O)[C@H](N)c3ccccc3)C(=O)N2[C@H]1C(=O)O,Enterobacter cloacae,,clinical isolate RKI-No_308/13,,,MIC,> 16 µg/mL
CCc1nc(N)nc(N)c1-c1ccc(Cl)cc1,,,,,,pKa1,7.34
CC(=O)N(C)[C@H]1CCN(C(=O)c2cnc3c(c2)C[C@](C)(c2ccc(F)cc2)N3)C1,,,Wistar Han rat,13 weeks,,NOAEL,50 mg/kg/day
N#C[C@@]1(c2ccc3c(N)ncnn23)O[C@H](CO)[C@@H](O)[C@H]1O,,,"dog, plasma","intravenous, 2 mg/kg, 0.5 h, solution",,plasma concentration,1900 ng/mL
O=C(O)C(Cl)Cl,,,faeces,"oral, concentration not given, time not given",reference: dose,faecal recovery,~2%
Cc1cc(Nc2ccc(C(F)(F)F)c(F)c2)n2ncnc2n1,,,10 mM HCl,pH 2,,kinetic solubility,10 µM
COc1cc2c(Oc3ccc4[nH]c(C)cc4c3F)ccnc2cc1OCC1(N)CC1,,,human,12 mg single dose,,AUC(0-t),875 ± 240 ng·h/mL
Nc1cccc2c1C(=O)N(C1CCC(=O)NC1=O)C2=O (stereo not shown),,,relapsed refractory multiple myeloma patients,dose not given,,discontinuation due to adverse events,12%
O=C(c1cc(Cc2n[nH]c(=O)c3ccccc23)ccc1F)N1CCN(C(=O)C2CC2)CC1,,,human,"oral, dose not given, capsule",,AUC at steady state,48000 ng·h/mL
CC(C)[C@H](N)C(=O)OCC(CO)OCn1cnc2c(=O)[nH]c(N)nc21 (stereo partly shown),,,rat,100 mg/kg,,oral bioavailability,88%
CC(C)(O/N=C(\C(=O)N[C@@H]1C(=O)N2C(C(=O)[O-])=C(C[n+]3ccccc3)CS[C@H]12)c1csc(N)n1)C(=O)O,Escherichia coli,,clinical isolate RKI-No_330/16,,,MIC,≤ 2 µg/mL
Cc1nccn1CC1CCc2c(c3ccccc3n2C)C1=O (stereo not shown),,,rat,"4 mg/kg, without tariquidar",,half-life,0.47 ± 0.06 h

# For quick reference, copied from above:
Structure (SMILES),target or system,test,test system,setting,scale,quantity,value
CC1(C)S[C@@H]2[C@H](NC(=O)[C@H](N)c3ccccc3)C(=O)N2[C@H]1C(=O)O,Enterobacter cloacae,,clinical isolate RKI-No_308/13,,,MIC,> 16 µg/mL
